Assay results gathered from unrelated publications.
Compare with care: the assays were run in different laboratories. “And” joins repeats or separate records; there may be more than shown. ± marks the error that the study gave.
Organism: Plasmodium berghei

The survival rate of COc1ccc(C[C@H](NC(=O)[C@H](C)NC(=O)CN2CCOCC2)C(=O)N[C@@H](Cc2ccccc2)C(=O)C2(C)CO2)cc1 (stereo in doubt) is reported as over 80% (ANKA, BALB/c mouse; 10 mg/kg).
COCCC1=C(C(=O)OC)C(c2ccc(Cl)cc2C)C2=C(CC(c3ccc(OC)c(OC)c3)OC2=O)N1 (single isomer, unassigned) gave an inhibition of under 10% (parasitaemia; KBG-173, mouse; oral, 50 mg/kg, day 3 post-infection, PEG400 vehicle, Thompson test; baseline: vehicle).
Cl.N=C(CC(O)c1cc2c(F)cc(F)cc2c2cc(C(F)(F)F)ccc12)Nc1ccc(F)c(F)c1 (stereo not drawn): “mean survival time” 20 days (Peters test; ANKA, mice; oral, 4 x 10 mg/kg).
COC1=CC(c2ccc[nH]2)=N/C1=C\c1[nH]c(Cc2ccc(OC(F)(F)F)cc2)cc1Cc1ccc(OC(F)(F)F)cc1 — result for “liver-stage parasite load suppression”: 56.2% (bioluminescence; mice; oral, 20 mg/kg/day, 48 h; baseline: vehicle).
C[C@H]1[C@H](OC(=O)CCC(=O)O)O[C@@H]2O[C@@]3(C)CC[C@H]4[C@H](C)CC[C@@H]1[C@@]24OO3 gave a parasitaemia inhibition of 99.9% (ANKA GFP-transfected, Mus musculus; oral, 4 x 100 mg/kg, day 4 post infection).
With CC1(C)c2nc(-c3ccc(F)cc3)c(Nc3ccc(Cl)cc3)n2CCN1C(=O)CN the EC50 was 19 ± 9 nM (HepG2, ANKA GFP-Luc; liver stage).
C[C@H]1[C@H](OC(=O)CCC(=O)O)O[C@@H]2O[C@@]3(C)CC[C@H]4[C@H](C)CC[C@@H]1[C@@]24OO3 has a median survival of 28 days (NK65/GFP, infected mice; oral gavage, 65 µmol/kg once daily, 96 h dosing period).
With Cl.N=C(CC(O)c1cc2c(F)cc(F)cc2c2cc(C(F)(F)F)ccc12)Nc1ccc(Br)cc1 (stereo not drawn) the parasitemia reduction was 99.8% and > 99% (Peters suppressive test; ANKA, infected mice; oral, 4 x 50 mg/kg, day 4; baseline: untreated control).
For COCCC1=C(C(=O)OC)C(c2ccc(Cl)cc2)C2=C(CC(c3ccc(OC)c(OC)c3)CC2=O)N1 (single isomer, unassigned), the inhibition was 57.3% (parasitaemia; KBG-173, mouse; oral, 50 mg/kg, day 6 post-infection, PEG400 vehicle, Thompson test; baseline: vehicle).
